# Published values gathered from unrelated publications.
# Protocols differ between the studies behind these lines.
# Organism: Severe acute respiratory syndrome coronavirus 2
SMILES,test,system,conditions,inhibition
CC(=O)O[C@@H]1[C@@H](OC(C)=O)[C@@H](OC(C)=O)C(OC(=N)C(Cl)(Cl)Cl)O[C@H]1C (stereo partly drawn),viral replication,293T/ACE2,20 µM,53.7%
O=C(C=Cc1ccc(O)c(O)c1)OC1CC(O)(C(=O)O)CC(OC(=O)C=Cc2ccc(O)c(O)c2)C1O (stereo not drawn),cytopathic effect,Vero C1008,3.125 µM,0%
Cc1ccc(N2CC3CC(C2)N3C)cc1C(=O)NC1(c2ccc3c4c(cccc24)C(=O)N3C)CC1,viral replication,Vero C1008,4.167 µM,100%
Nc1ncnc2c1ncn2[C@@H]1O[C@H](CSCc2cccc(C(=O)O)c2)[C@@H](O)[C@H]1O,"viral replication, outcome no inhibition, N-protein immunofluorescence",Calu-3,200 µM,no inhibition
N=C(OC1O[C@H](COC(=O)c2ccccc2)[C@@H](OC(=O)c2ccccc2)[C@H](OC(=O)c2ccccc2)[C@H]1OC(=O)c1ccccc1)C(Cl)(Cl)Cl (stereo partly drawn),viral replication,293T/ACE2,20 µM,38.9%
CC(=O)OC1(C)CC(C=C(C)CCC=C(C)C)OC2(C=C(CO)C3CC(=O)C(C)=CC3O2)C1 (stereo not drawn),"viral replication, inhibitor",Calu-3,50 µM,90.6%
COC(=O)c1cc2c(=O)n3ccccc3nc2n1Cc1ccccc1,viral replication,Vero,10 nM,51.9%
CO/C1=C\C(C)=C\[C@@H](C)[C@@H](O)[C@@H](C)C/C(C)=C/C=C/[C@H](OC)[C@@H]([C@@H](C)[C@@H](O)[C@H](C)C(=O)/C=C/[C@H](C)[C@H](O)C(C)C)OC1=O,"viral replication, inhibitor",Calu-3,50 µM,92.4%
C=CCOC(=O)C12CCC(C)(C)CC1C1=CCC3C4(C)CCC(OC5OC(CO)C(O)C(O)C5O)C(C)(C)C4CCC3(C)C1(C)CC2 (stereo not drawn),viral replication,293T/ACE2,20 µM,27.6%

# A few entries again:
SMILES,test,system,conditions,inhibition
Cc1ccc(N2CC3CC(C2)N3C)cc1C(=O)NC1(c2ccc3c4c(cccc24)C(=O)N3C)CC1,viral replication,Vero C1008,4.167 µM,100%
